Measurements from different studies.
A part holds a random share of what one study measured.

Set 1
Target: Ras GTPase-activating protein-binding protein 1, full length (G3BP1, Homo sapiens, UniProt Q13283)
Chain of UniProt Q13283 (whole entry, looked up): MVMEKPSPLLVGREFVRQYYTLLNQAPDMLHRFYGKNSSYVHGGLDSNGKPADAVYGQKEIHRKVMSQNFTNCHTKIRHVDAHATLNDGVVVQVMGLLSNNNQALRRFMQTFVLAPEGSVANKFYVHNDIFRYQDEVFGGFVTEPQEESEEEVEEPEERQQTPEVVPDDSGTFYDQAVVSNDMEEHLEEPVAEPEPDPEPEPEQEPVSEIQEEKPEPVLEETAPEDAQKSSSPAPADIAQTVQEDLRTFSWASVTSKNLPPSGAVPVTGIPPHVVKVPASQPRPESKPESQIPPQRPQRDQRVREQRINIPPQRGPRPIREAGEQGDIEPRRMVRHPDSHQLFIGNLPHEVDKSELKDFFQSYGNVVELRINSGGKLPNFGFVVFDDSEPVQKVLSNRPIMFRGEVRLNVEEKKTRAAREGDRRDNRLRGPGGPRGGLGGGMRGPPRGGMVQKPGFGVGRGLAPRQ
Method: RNA Bind-n-Seq
Molecule type: RNA
Sample: in vitro
Concentration: 200 nM
Notes: whole 134-nt RNA, ends assumed
With: 150 mM LiCl
Reference: input library
Reading: higher = stronger binding
Measurement: log2 enrichment
Library: 7-deaza-guanosine replaces G
Constant ends, left off below: GGGAGUUCUACAGUCCGACGAUC … UGGAAUUCUCGGGUGUCAAGG
UGGGAGGUGGAUUUUGUUUAUUUUUUUAGCUCAUUUCCAGGGGUGGGAAUUUUUUUUUAAUAUGUGUCAUGAAUAAAGUAGUUUUUGAAA: -0.111
UGGCCCUGCUGGCAUGCGGGGAGGAAGAGGUGGCCUCAUGGAUCGUGGUGGUCCCGGUGGAAUGUUCAGAGGUGGCCGUGGUGGAGACAG: 0.312
UCCUGUGCUACACAUCGUAUGUACCGAAUCGGGGAAAAAGGGGUUUUUUUGGGGUGGGGAAAGUAUUAUGUUACGCCGUUCGGAUCUGCA: 0.165
CACAGACAACACGCACCCACACAGACACAGAGGGAAGGGGUUGGGAUGGGGACAGGGUGCACAGCAGGGGGGGGUAGGACCCCAGCCCCU: 0.693
UCCUCAAGUCCUGUGCUACACAUCGUAUGUACCGAAUCGGUGGGUGGGGUGGAAAGUAUUAUGUUACGCCGUUCGGAUCUGCACUUCCAG: 1.03
UCCUCAAGUCCUGUGCUACACAUCGUAUGUACCGAAUCGGUGGGGUGGUGGGAAAGUAUUAUGUUACGCCGUUCGGAUCUGCACUUCCAG: 0.663
CUCAAGUCCUGUGCUACACAUCGUAUGUACCGAAUCGGGCCGGGCCGGCCGGGGAAAGUAUUAUGUUACGCCGUUCGGAUCUGCACUUCC: 0.479
UCCUGUGCUACACAUCGUAUGUACCGAAUCGGGGAAAGGGGUUUGGGGAAAAAAAGGGGAAAGUAUUAUGUUACGCCGUUCGGAUCUGCA: -0.821
UUAAGAAUUUGCUUAAAGAAGUGCGGAUCUAUGCACAGAAAUUUAUUGAUCGAGGAAAGGAUUUUAACUUGGAGUUGGCAAUUAAAACAC: -0.704
UGGCGCUGGUGGCAUGCGGGGAGGAAGAGGUGGCCUCAUGGAUCGUGGUGGUCCCGGUGGAAUGUUCAGAGGUGGCCGUGGUGGAGACAG: 0.164
GUCCUGUGCUACACAUCGUAUGUACCGAAUCGGGGAAAAGGGGAAAAGGGGAAAAGGGAAAGUAUUAUGUUACGCCGUUCGGAUCUGCAC: 0.125

Set 2
Target: RNA binding protein fox-1 homolog 2, RRM domain, GST-SBP tag (RBFOX2, Homo sapiens, UniProt O43251-10, residues 100-194)
Method: RNA Bind-n-Seq
Molecule type: RNA
Sample: in vitro
Concentration: 365 nM
Notes: natural RNA segment, single round, ends assumed
Reference: no-protein control
Reading: higher = stronger binding
Measurement: RBNS enrichment (R)
Constant ends, left off below: GGGAGUUCUACAGUCCGACGAUC … UGGAAUUCUCGGGUGCCAA
Construct (chain): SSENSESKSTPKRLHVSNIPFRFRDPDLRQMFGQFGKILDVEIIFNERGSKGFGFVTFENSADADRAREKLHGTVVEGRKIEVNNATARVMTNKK
AGUAGUACACACCUGUAGUCCAAGCUACUUGGGAGGCUGAAGUGGGAGGAUCAUUUGUGCCCAGGUUGAGGCUAUAGUGAGCCAUGAUCAUACCACUGCACUCCAGCCUG: 0.419
GCAAAAGGAGAAAGAUAAAAUACAGAAGACUGGCCCCAGAGAGACCUCAGAUCAGUAUUGUGCAUUGUAGUCUACCUGCAUGUGAUCUAUGUUGACAUUUCGGGGAUAUU: 1.23
UCCCUUCCCUUUGCACAUAUUUUUUCCUCCCCUUAUUGAAGUCAGCUCUAACCCCAAAUUCUAGUAUCCAAAAGUAUUUUUAUUUGUAUAAUGCUAUCUGAAAAAUGUGU: 0.578
AUAAAUUGAAAUUGUUAUGCUUUUGUAUUUCCAUUUCUUGCAAAUAAAUAUUUUUUCUUAAAUAGUAGAUGUUGCCCAGUCUUUAUAAUCUUGGUACUAAUUUGAAAAGC: 0.678
GCUCACUUUUGCUCAAUACCUAUCAAAAGCUUGUCCCAGAGUGAUUAUGGAGGAUUGCAUGCAGGAUACACACUUCAUUAAAUCCUCUAAAAUCUAACUUUGAUUAAUUA: 1.41
CUGGUUUCAUUUGCUUCCCUGCCGGGUUUAUUGUGUGUACCCCAUUUGUACUCCCAAUAACCUGAAGAUUCCAUGUAACUCUUAUGUACGCGCAUGAAUACUUUAAAUGC: 7.21
UGCAUCAUGCAUGACUCACUCAGGGGCCCUUGGGGCCCUCUUCUCUAUGAUAUGAAUACUGUGUGUGUGAGUUGAAGCAUUACCUGAUAUUAAAUGAAGGAUUUGGAGAA: 2.96
CCACCUUGGCCAGGCCUCCUCGGAGAAGCUUGUCCCCCGUGUGGGAGGGACGGAGCCGGACUGGACAUGGUCACUCAGUACCGCCUGCAGUGUCGCCAUGACUGAUCAUG: 0.405
CUCCCCUCACCCCAACUCUAGGUUUCCAGGCCUCACAGCCAAGCUGAAGCUUGGAGAAAACUCUGCAUUCCCAUGAGGGCAAAGGCAGCUGCCCUCCCUGACCCUAUAGC: 1.06
GCGCAGUCAGAGGAUGGAGUCUGAUGUCUUCCGGCUGCUGCCUUUGUGGGCAGAGCUAAUCCAAGUUACUGUUCUCUGUUCAAAUGAAGCAGCUUCAGGAGAAAAAGAGC: 0.305
UUUAAGGAGUUCAGAUUUAAUGACCAAAGUCAUACAGAUCAUGGAAUCUGUCGUCGUCUUAUACAGUGUCAGCCUCGAGUACAUUUAUUAACCUUUUGGGGCUGUCAGUU: 0.307
UAGGGGGGGGCGUUCAAAGGAAGCUGUUUAGCCUGACCGCAAGUACUGAAGUCUCUGCUUUCUGUCAGAAUCAACCACCGACCUUGUGCUGCAUUGGAGAUCACAUCCUU: 0.66

Set 3
Target: Centromere-binding protein 1, full length, N-terminal tag (CBF1, Saccharomyces cerevisiae, UniProt P17106, residues 1-351)
Chain of UniProt P17106 (whole entry, looked up): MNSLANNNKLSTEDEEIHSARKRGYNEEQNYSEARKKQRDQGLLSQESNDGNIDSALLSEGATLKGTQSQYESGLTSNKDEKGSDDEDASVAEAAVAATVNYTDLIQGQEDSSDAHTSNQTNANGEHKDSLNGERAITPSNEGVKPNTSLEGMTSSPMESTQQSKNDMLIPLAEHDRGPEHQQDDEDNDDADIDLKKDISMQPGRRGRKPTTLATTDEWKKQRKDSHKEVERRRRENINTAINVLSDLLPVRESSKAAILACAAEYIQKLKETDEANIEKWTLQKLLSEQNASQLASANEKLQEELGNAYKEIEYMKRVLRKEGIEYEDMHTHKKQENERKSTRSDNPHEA
Method: protein-binding microarray
Molecule type: double-stranded DNA, one strand shown
Sample: in vitro
Concentration: 0.8 µM
Notes: whole 60-bp probe, no competitor
Reading: higher = stronger binding
Measurement: fluorescence intensity
Constant ends, left off below: … GTCTTGATTCGCTTGACGCTGCTG
GAAGATGCGTCTACTCATCACCTATAGTCTCAATAG: 513 a.u.
CTATAAGCTATTTGTCACGTTACTATTTCTCTCTTC: 2370 a.u.
CTACAGATGTCAGACAACGTGCAGCATCTTTTTTTC: 666 a.u.
CTACCAGAGCTTCATGAGACCAAGGAAGGAACGTTC: 503 a.u.
GAAAATTTGCCAAGTAACGTGTTCTTTGTGTGGTAG: 825 a.u.
CTAAAGTACTGTATACACATGATAATAACTGGTTTC: 694 a.u.
TGTACGAAGCTATTAGACGTGGTTATAGTAGTTAGG: 544 a.u.
GAAAACGTTCAAGGCAACGTGTATGTTTGTTATTAG: 575 a.u.
CTACTATTTTTCTATCACGTAAGTTGACATTTGTTC: 651 a.u.
CTAATATGTCCTTGCTAGCTGATGTCTCGAAATTTC: 523 a.u.
CTACATTATGCACGTGACATTACAAATTGTGGTTTC: 20000 a.u.
CTATCTGAGCCATCTCTCCTGATATATAAGACATTC: 503 a.u.
GAAAAATGATGTACGCACGTGGGCGAAAGTTCATAG: 3460 a.u.
CTAAAGTGTGTGAATTTCGTGATAAAATTATTGTTC: 561 a.u.
GAATCTTCCGTTAGCAGCATGATCTTGTGTAGATAG: 557 a.u.
GAAAAATACAAAGACAACGTGGGCTGATTACAGTAG: 621 a.u.
GAAAGTCCATATTTCCACGTTCTCCTCTTCCTATAG: 525 a.u.
CTATATCTCAAATTTCACCTGTTTCTCATTTTTTTC: 523 a.u.
GAAACTTTTTTCCCACACGTGCTTATGGGCCGCTAG: 7440 a.u.
GAATGTCACCAACGTCACGAAGAAATGAGTCGGTAG: 625 a.u.
CCTAACTACTATACGCATGTGTTATAGCTTCGTACA: 623 a.u.
CTATTCGGAGAATCTCACATGCCACTGAAGATTTTC: 582 a.u.
CTAGCTTCCTTTACTGTCACGAGCGGCCCATAATTC: 1380 a.u.
CTAGAACAAGGTTAGACGGTGACGTTTAGGCGCTTC: 499 a.u.
GAAATTAATGTTTATCACGTTATTATTTTTTTGTAG: 2160 a.u.

Set 4
Target: Max-binding protein MNT, bHLH-zipper, MAX partner unstated (MNT, Homo sapiens, UniProt Q99583, residues 220-300)
Method: protein-binding microarray
Molecule type: double-stranded DNA, one strand shown
Sample: in vitro
Concentration: not given
Notes: k-mer, scored over probes, only values ≥0.25
Reading: higher = stronger binding
Measurement: E-score
Construct (chain): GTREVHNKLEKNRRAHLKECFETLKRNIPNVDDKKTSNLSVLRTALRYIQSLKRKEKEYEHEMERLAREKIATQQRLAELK
CTGTACAC: 0.263
CCCCGGGA: 0.251
AAACACGA: 0.274
CTCGTGCC: 0.399
ACCAGGCG: 0.279
ACGTGTTC: 0.448
GCACGCCA: 0.323
ACGAGGGA: 0.351
ATGCGCCC: 0.282
CATTGCCC: 0.257
CAGCATGC: 0.419
CATGCTAC: 0.329
CAGCATGG: 0.431
ACGTGGCG: 0.444
CACGAGTC: 0.393
CGTGTCCC: 0.343
CATGTTAG: 0.269
CACACACG: 0.353
CATGTCTC: 0.334
AGGCGGGG: 0.319
CGTGCTAG: 0.396
CATGTGAA: 0.412
CGCCCACG: 0.374
ACATTGCA: 0.271
CACCACCC: 0.252
